Measurements from different studies.
CTSL: Procathepsin L (CTSL, Homo sapiens, UniProt P07711)
Chain of UniProt P07711 (whole entry, looked up): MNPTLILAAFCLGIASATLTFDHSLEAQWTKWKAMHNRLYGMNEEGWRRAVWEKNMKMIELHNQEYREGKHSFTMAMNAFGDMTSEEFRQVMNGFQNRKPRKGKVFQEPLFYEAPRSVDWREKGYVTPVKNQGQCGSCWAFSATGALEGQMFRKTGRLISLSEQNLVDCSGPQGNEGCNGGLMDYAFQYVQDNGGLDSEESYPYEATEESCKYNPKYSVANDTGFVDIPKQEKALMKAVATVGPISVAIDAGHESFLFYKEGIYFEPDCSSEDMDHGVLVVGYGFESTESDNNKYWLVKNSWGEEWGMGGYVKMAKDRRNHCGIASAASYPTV
Transmembrane protease serine 6: Transmembrane protease serine 6 (Homo sapiens, UniProt Q8IU80)
Chain of UniProt Q8IU80 (whole entry, looked up): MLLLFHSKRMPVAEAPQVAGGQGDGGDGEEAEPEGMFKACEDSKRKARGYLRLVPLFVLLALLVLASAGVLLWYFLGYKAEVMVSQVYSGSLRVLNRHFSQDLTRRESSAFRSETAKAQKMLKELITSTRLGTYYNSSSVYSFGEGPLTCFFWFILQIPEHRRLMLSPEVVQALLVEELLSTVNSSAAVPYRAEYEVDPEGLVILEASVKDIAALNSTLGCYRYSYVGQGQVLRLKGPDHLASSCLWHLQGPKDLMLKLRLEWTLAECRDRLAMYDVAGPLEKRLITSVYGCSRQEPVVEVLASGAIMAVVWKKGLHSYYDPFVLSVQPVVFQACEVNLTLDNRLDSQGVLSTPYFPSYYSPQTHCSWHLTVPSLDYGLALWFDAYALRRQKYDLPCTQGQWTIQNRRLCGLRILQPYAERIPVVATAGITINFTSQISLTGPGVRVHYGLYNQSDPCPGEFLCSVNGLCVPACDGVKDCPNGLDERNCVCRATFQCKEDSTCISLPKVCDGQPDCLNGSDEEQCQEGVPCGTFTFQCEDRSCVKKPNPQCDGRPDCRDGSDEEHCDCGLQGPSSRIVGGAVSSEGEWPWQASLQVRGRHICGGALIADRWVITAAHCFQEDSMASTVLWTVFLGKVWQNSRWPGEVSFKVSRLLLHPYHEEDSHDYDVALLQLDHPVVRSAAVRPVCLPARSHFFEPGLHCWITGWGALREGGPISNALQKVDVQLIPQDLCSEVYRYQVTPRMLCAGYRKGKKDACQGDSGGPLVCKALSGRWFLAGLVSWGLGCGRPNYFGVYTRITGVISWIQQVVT
Chain of UniProt P49761 (whole entry, looked up): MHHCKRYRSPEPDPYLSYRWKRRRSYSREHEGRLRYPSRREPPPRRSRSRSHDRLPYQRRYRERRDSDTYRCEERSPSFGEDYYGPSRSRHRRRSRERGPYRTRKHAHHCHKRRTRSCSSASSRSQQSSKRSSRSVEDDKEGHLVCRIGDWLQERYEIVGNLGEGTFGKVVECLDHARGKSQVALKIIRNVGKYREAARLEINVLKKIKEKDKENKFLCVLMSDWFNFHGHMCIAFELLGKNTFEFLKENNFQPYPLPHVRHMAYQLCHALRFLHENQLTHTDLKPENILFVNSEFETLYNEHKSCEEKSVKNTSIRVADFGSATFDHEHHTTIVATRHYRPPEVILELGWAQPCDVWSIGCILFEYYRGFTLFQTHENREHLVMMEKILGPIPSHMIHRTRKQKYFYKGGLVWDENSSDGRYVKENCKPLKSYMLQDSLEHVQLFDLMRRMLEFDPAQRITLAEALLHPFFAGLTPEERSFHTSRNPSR
Chain of UniProt P05164 (whole entry, looked up): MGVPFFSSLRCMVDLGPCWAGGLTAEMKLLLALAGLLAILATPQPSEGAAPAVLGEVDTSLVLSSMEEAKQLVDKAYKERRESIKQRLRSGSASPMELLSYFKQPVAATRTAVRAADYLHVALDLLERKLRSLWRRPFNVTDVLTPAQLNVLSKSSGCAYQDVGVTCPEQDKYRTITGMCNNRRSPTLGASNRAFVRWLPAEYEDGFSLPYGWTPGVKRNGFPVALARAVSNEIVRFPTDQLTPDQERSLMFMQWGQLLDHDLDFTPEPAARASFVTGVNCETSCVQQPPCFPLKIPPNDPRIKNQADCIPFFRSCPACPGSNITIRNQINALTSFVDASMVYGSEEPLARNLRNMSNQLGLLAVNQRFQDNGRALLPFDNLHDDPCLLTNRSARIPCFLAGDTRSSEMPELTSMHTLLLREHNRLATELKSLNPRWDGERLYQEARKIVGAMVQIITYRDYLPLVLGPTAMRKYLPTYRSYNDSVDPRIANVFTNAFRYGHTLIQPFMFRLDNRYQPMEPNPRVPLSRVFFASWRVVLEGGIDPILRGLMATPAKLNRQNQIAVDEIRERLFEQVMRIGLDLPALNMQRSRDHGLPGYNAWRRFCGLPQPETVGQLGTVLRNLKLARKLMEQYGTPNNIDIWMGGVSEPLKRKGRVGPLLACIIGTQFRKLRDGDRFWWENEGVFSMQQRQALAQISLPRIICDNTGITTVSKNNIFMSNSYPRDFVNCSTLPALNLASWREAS
Chain of UniProt P00519 (whole entry, unmodified, looked up): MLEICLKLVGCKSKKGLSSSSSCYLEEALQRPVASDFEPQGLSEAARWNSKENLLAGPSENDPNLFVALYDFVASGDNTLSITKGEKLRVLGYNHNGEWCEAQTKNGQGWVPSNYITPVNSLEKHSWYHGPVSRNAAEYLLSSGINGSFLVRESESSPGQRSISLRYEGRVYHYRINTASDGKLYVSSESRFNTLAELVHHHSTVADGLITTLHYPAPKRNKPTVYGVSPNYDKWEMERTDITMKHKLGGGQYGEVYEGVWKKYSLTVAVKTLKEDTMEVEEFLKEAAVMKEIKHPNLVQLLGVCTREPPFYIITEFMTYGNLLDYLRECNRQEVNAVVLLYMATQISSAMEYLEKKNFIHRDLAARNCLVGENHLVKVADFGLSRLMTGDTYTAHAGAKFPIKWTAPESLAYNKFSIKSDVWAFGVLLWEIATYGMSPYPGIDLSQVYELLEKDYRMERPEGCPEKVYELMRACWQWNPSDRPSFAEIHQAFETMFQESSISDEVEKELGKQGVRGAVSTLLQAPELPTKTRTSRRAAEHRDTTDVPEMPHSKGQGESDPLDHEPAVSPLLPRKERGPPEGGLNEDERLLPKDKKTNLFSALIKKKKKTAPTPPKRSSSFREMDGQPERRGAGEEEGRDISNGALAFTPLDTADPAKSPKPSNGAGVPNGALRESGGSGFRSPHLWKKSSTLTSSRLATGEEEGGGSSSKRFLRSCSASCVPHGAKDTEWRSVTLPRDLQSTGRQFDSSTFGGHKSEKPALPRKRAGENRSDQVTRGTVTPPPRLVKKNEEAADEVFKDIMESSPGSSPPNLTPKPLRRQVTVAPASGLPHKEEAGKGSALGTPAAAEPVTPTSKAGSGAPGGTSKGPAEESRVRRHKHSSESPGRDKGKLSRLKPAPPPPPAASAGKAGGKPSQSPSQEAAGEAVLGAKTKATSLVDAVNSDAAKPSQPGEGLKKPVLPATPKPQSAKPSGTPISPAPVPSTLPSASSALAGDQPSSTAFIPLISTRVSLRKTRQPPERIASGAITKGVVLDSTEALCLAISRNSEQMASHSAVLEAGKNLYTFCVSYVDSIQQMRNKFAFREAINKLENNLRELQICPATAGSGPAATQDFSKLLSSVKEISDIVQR
Chain of UniProt P49841 (whole entry, looked up): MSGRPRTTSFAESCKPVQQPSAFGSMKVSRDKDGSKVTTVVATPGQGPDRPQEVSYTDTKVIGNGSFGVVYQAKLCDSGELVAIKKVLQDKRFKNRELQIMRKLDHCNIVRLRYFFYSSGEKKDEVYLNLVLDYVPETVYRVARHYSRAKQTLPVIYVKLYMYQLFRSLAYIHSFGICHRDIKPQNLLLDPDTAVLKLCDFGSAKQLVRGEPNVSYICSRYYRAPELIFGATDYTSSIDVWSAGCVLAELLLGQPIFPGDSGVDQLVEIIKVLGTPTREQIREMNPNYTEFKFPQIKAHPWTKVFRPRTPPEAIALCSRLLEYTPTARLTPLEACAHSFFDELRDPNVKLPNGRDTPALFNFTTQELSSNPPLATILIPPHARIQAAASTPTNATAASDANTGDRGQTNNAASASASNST
Chain of UniProt Q9HBY8 (whole entry, looked up): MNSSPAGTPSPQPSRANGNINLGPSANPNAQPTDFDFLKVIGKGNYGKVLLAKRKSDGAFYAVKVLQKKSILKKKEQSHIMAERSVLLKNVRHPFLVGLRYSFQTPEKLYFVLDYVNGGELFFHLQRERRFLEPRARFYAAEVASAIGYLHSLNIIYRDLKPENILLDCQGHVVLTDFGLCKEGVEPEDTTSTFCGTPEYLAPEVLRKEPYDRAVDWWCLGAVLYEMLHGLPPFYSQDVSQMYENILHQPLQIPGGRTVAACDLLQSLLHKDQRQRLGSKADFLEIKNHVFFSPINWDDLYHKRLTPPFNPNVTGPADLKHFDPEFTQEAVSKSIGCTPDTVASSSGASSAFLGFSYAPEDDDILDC
Chain of UniProt P06239 (whole entry, looked up): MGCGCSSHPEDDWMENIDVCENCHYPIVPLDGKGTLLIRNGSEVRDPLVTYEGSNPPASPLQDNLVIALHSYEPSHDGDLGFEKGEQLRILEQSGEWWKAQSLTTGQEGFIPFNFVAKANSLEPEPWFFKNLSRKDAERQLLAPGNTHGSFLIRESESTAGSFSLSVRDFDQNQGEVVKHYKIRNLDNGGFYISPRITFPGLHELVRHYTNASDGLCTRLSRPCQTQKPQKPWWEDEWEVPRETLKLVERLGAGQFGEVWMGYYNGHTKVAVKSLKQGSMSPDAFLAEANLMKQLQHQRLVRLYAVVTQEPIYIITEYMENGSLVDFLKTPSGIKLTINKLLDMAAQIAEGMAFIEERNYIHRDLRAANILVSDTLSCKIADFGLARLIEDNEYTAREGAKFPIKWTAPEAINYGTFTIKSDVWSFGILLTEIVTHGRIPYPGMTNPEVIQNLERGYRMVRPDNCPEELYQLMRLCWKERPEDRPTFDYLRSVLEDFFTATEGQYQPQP

| Compound | target or system | assay | system | conditions | endpoint | result |
| --- | --- | --- | --- | --- | --- | --- |
| O=C(/C=C/c1ccc(O)c(O)c1)OCCc1ccccc1 | CTSL | enzyme activity, inhibitor | – | 100 µM | remaining activity | 62.6% |
| CC(C)OCCn1c(=S)[nH]c(=O)c2[nH]ccc21 | Myeloperoxidase (MPO, Homo sapiens, UniProt P05164) | enzyme activity, inhibitor | – | 1.25 µM | remaining activity | 28.3% |
| CN(Cc1ccc(C(C)(C)C)cc1)Cc1cccc2ccccc12 | Trichophyton rubrum | microbial growth, disc diffusion | ATCC28188 | 0.032 µg/mL, 6 days | inhibition zone | ≥ 55 mm |
| COc1cc(-c2cncc3c2CN(C)Cc2cc(N4CCNCC4)ccc2-3)cc(OC)c1OC | SGK2 (Homo sapiens, UniProt Q9HBY8) | enzyme activity, inhibitor | – | 1 µM | remaining activity | 128% |
| CCCCCCCCCC=O | CTSL | enzyme activity, inhibitor | – | 100 µM | remaining activity | 71% |
| N=C(N)NCCC[C@H](NC(=O)[C@@H](CC1CCCCC1)NC(=O)[C@H](Cc1cscn1)NC(=O)CCc1ccccc1)C(=O)c1nc2ccccc2s1 | Transmembrane protease serine 6 | enzyme activity, inhibitor | – | 0.1 µM | remaining activity | 94% |
| Cc1ccc(N(O)N=Nc2ccc(S(=O)(=O)Nc3onc(C)c3C)cc2)cc1 | – | ABTS scavenging | – | 60 µg/mL | inhibition | 49.9% |
| CSCC[C@H](NC(=O)[C@H](Cc1ccccc1)NC(=O)[C@H](Cc1c[nH]cn1)NC(=O)CNC(=O)[C@@H](NC(=O)[C@H](C)NC(=O)[C@H](Cc1c[nH]c2ccccc12)NC(=O)[C@H](CCC(N)=O)NC(=O)[C@@H]1CCC(=O)N1)C(C)C)C(N)=O | CTSL | enzyme activity, inhibitor | – | 100 µM | remaining activity | 53.2% |
| CS(=O)(=O)c1ccccc1Nc1nc(Nc2ccnc(CO)c2)ncc1Cl | LCK (Homo sapiens, UniProt P06239) | enzyme activity, inhibitor | – | 1 µM | remaining activity | 18.9% |
| C=CC(=O)N1CCC(COCC(=O)N2CCN(c3nc(-c4cnc(N)nc4C(F)F)nc(N4CCOC[C@@H]4C)n3)CC2)CC1 | CLK3 (Homo sapiens, UniProt P49761) | binding, competition with immobilised ligand | – | 1 µM | remaining binding | 76% |
| CC[C@H](C)[C@H](NC(=O)[C@H](CCC(N)=O)NC(=O)[C@@H](NC(=O)[C@H](CCSC)NC(=O)[C@H](CCCCN)NC(=O)[C@H](CO)NC(=O)[C@@H](NC(=O)[C@H](CCSC)NC(=O)[C@H](CC(C)C)NC(=O)[C@H](CC(N)=O)NC(=O)[C@@H](NC(=O)[C@@H](NC(=O)[C@H](CO)NC(=O)[C@H](CC(C)C)NC(=O)[C@H](C)NC(=O)[C@H](CCCNC(=N)N)NC(=O)[C@H](CCC(=O)O)NC(=O)[C@H](Cc1ccc(O)cc1)NC(=O)[C@H](Cc1ccccc1)NC(=O)[C@H](C)NC(=O)[C@H](CC(N)=O)NC(=O)[C@@H](N)CCCCN)[C@@H](C)CC)[C@@H](C)CC)[C@@H](C)O)C(C)C)C(=O)N[C@@H](CC(N)=O)C(=O)N[C@H](C(=O)O)C(C)C | GSK3B (Homo sapiens, UniProt P49841) | enzyme activity, inhibitor, radiometric | – | 50 µM, 20 min | remaining activity | 106% |
| CCCCC(=O)Nc1ccc(-c2ccc3ncn(CCC)c(=O)c3c2)cn1 | Tyrosine-protein kinase ABL1, phosphorylated (ABL1, Homo sapiens, UniProt P00519, Y253F) | binding, competition with immobilised ligand | – | 0.5 µM | remaining binding | 99% |
| Cc1cc([C@@H](C)Nc2ccccc2C(=O)O)c2nc(N3CCC(F)(F)CC3)c(C#N)c(=O)n2c1 | Insulin receptor (INSR, Homo sapiens, UniProt P06213) | binding, competition with immobilised ligand | – | 10 µM | remaining binding | 100% |
| CCCN(O)N=Nc1ccc(S(=O)(=O)Nc2cc(C)on2)cc1 | – | ABTS scavenging | – | 180 µg/mL | inhibition | 28.7% |
| N=C(N)NCCC[C@H](NC(=O)[C@H](Cc1ccccc1I)NC(=O)[C@H](Cc1cscn1)NC(=O)CCc1ccccc1)C(=O)c1nc2ccccc2s1 | Transmembrane protease serine 6 | enzyme activity, inhibitor | – | 0.1 µM | remaining activity | 74% |
| CC[C@H](C)[C@H](NC(=O)[C@H](CCC(N)=O)NC(=O)[C@H](CC(C)C)NC(=O)[C@H](CCSC)NC(=O)[C@H](CCCCN)NC(=O)[C@H](CO)NC(=O)[C@H](CO)NC(=O)[C@H](CCSC)NC(=O)[C@H](CC(C)C)NC(=O)[C@H](CC(N)=O)NC(=O)[C@@H](NC(=O)[C@@H](NC(=O)[C@H](CO)NC(=O)[C@H](CC(C)C)NC(=O)[C@H](CS)NC(=O)[C@H](CCCNC(=N)N)NC(=O)[C@H](CC(=O)O)NC(=O)[C@H](Cc1c[nH]c2ccccc12)NC(=O)[C@H](Cc1ccccc1)NC(=O)[C@H](C)NC(=O)[C@H](CCC(=O)O)NC(=O)[C@@H](N)CCCCN)C(C)C)[C@@H](C)CC)C(=O)N[C@@H](CC(N)=O)C(=O)N[C@@H](C)C(=O)O | Cyclin-dependent kinase 5, with p35 (CDK5, Homo sapiens, UniProt Q00535) | enzyme activity, inhibitor, radiometric | – | 50 µM, 20 min | remaining activity | 90% |
| CNc1ncc2c(/C=C/C(=O)N3CCC(OC)CC3)nn(Cc3cccc(C(F)(F)F)c3)c2n1 | TAOK2 (Homo sapiens, UniProt Q9UL54) | enzyme activity, inhibitor, radiometric | – | 1 µM | remaining activity | 102% |
| O=CC(O)CO (stereo not drawn) | CTSL | enzyme activity, inhibitor | – | 100 µM | remaining activity | 127% |

Repeated from above:
| Compound | target or system | assay | system | conditions | endpoint | result |
| --- | --- | --- | --- | --- | --- | --- |
| CCCCCCCCCC=O | CTSL | enzyme activity, inhibitor | – | 100 µM | remaining activity | 71% |
| CC(C)OCCn1c(=S)[nH]c(=O)c2[nH]ccc21 | Myeloperoxidase (MPO, Homo sapiens, UniProt P05164) | enzyme activity, inhibitor | – | 1.25 µM | remaining activity | 28.3% |
